Assay results from different studies.
A part holds a random share of what one study measured. Changes are numbered by the printed parent chain.

Block 1
Target: Interferon regulatory factor 3, full length, phosphomimetic (IRF3, Homo sapiens, UniProt Q14653, residues 1-427, S386D/S396D/S398D/S402D/T404D/S405D)
UniProt Q14653, sequence (whole entry, unmodified, looked up): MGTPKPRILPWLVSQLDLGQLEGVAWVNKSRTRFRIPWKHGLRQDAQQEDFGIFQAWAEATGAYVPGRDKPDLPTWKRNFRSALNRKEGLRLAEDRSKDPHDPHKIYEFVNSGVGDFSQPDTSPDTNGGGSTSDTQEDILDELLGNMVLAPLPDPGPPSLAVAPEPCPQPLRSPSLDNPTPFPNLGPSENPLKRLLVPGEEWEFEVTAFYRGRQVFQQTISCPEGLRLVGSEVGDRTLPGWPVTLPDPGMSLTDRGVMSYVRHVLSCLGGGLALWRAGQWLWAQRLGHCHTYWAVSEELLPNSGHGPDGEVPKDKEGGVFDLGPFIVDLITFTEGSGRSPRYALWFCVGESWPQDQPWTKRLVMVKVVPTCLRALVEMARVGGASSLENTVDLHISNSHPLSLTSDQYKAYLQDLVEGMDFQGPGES
Method: protein-binding microarray
Molecule type: double-stranded DNA, one strand shown
Matrix: in vitro
Concentration: 2540 nM top
Notes: 60-bp whole probe
Together with: salmon DNA 0.4 mg/ml
Reference: random background probes
Reading: higher = stronger binding
Endpoint: fitted relative affinity
Constant ends, left off below: GCCTAGCAC … GTCTTGATTCGCTTGACGCTGCTG
GACGGACTGGGTATTGGGACGTGCTAG: -0.771 z-score
TCAAGTTTCATTCCTGAACTGTGCTAG: 3.41 z-score
GACGGTTTCGACTTACGGGACGTGCTA: 3.61 z-score
TTAGATATCAGATTGGATTAGTGCTAG: 0.819 z-score
TTAGGTATCGACTTTCTGTTAGTGCTA: 1.3 z-score
TTAGCTTTCCTTATCCTTTAGTGCTAG: 5.25 z-score
TCAACCATCCTATGTAGAACTGTGCTA: 0.306 z-score
TTAGGTCTCGTTATCCTTTAGTGCTAG: 1.41 z-score
TTAGATTTCGGGTCTGGATTAGTGCTA: 1.94 z-score

Block 2
Target: Sal-like protein 4, full length isoform A (SALL4, Homo sapiens, UniProt Q9UJQ4, residues 1-1053)
UniProt Q9UJQ4, sequence (whole entry, looked up): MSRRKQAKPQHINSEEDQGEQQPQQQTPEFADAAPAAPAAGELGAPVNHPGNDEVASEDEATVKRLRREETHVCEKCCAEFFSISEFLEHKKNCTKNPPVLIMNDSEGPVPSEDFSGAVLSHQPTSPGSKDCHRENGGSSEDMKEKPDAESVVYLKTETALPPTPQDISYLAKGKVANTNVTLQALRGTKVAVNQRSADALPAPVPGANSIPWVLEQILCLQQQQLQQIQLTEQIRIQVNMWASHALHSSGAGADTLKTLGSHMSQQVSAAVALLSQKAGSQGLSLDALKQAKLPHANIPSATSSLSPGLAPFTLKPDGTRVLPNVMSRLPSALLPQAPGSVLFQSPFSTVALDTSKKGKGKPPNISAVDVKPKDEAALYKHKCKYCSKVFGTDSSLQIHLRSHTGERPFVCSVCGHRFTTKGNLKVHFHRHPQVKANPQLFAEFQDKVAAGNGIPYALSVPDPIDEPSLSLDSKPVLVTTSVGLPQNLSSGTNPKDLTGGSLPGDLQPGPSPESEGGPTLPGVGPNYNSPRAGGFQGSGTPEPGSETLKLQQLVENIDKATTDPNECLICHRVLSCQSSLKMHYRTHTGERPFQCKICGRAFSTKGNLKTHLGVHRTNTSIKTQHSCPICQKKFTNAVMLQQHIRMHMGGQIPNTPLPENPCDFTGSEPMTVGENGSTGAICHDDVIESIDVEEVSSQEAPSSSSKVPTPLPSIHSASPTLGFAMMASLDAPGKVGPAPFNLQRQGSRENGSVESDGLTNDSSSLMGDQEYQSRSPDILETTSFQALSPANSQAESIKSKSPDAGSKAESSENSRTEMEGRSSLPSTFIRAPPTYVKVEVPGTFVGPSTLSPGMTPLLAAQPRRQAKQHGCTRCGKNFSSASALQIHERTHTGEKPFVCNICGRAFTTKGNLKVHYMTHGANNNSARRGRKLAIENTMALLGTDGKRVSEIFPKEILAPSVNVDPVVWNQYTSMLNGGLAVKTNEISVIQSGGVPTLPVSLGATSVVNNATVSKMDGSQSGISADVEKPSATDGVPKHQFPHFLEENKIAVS
Method: universal PBM
Molecule type: double-stranded DNA, one strand shown
Matrix: in vitro
Concentration: 600 nM
Notes: 8-mer, flanks averaged, mean of replicates
Reading: higher = stronger binding
Endpoint: E-score
AGAGACCG: -0.258
ATCTGTTG: -0.0346
TGACCTCA: -0.149
AAAGAAAA: 0.263
AATCCAAA: 0.26
AGAACAAG: 0.121
CCTACAGC: -0.19
AACTAAGA: 0.199
CAACCCGA: -0.152
CGGATACA: 0.0361
CGGGTTCA: -0.239
GACGATAA: 0.183

Block 3
Target: CCNF, cyclin fold, Cln2 fusion (human)
Method: yeast growth competition, sequencing
Matrix: yeast
Notes: weak parent motif
Reference: not given
Reading: higher = stronger binding
Endpoint: normalised enrichment score
Starting sequence: MASTL docking peptide (human); PMIAKNLMCELDE
PMIAKNSMCELDE [L7S]: -0.319
PMIAKNCMCELDE [L7C]: -0.524
PMIAKNEMCELDE [L7E]: 0.0976
PMIAKNVMCELDE [L7V]: -0.615
PMSAKNLMCELDE [I3S]: -0.0836
PMIAKNLKCELDE [M8K]: 0.096
PMIAKALMCELDE [N6A]: -0.195
PMIAKNIMCELDE [L7I]: -0.316
PMCAKNLMCELDE [I3C]: 0.266

Further values, each from its own experiment
PhoQ, residues 284 288 289 292 302 303 TNASYF  fold induction (PhoP, residues 12 14 15 18 19 NQFFI (Escherichia coli, UniProt P23836); Sort-seq, item: YFP reporter; E. coli; PhoQ-PhoP variant library, together with: 10 µM Mg2+; reference: high Mg2+ state, higher = stronger signaling): 2.21

Some of these lines once more (block 3):
PMIAKNLKCELDE [M8K]: 0.096
PMIAKNCMCELDE [L7C]: -0.524
PMIAKALMCELDE [N6A]: -0.195
PMIAKNSMCELDE [L7S]: -0.319
